Measured values of several laboratories.
Lines come from different studies, so protocols differ. ± marks the error that the study gave.

Compound | test | system | conditions | quantity | value
C=CC(=O)NC1CCN(c2ncc3ncnc(Nc4ccc(Oc5ccc6c(c5)ncn6C)c(C)c4)c3n2)CC1 | – | healthy male volunteers, plasma | oral, 60 mg, unlabelled tablet | apparent volume of distribution Vz/F | 545 L
O=C(O)c1cccc(C(=O)O)c1 | – | betaine/propylene glycol DES-water | DES mass fraction 0.50 | apparent dissolution enthalpy | 2.42 kcal/mol
OC[C@H]1O[C@@H](c2cc(Cc3ccc(C4CC4)cc3)c(Cl)c3c2CCO3)[C@H](O)[C@@H](O)[C@@H]1O | – | healthy Korean adults, fasted, plasma | oral, 0.3 mg single dose, separate tablets, added: co-administered drug 50 mg | apparent volume Vd/F | 152 ± 38.1 L
CO[C@H]1CC[C@H](N2C(=O)CNc3ncc(-c4ccc(C(C)(C)O)nc4)nc32)CC1 | – | patients, plasma | 15 mg, day 15 | apparent clearance (CL/F) | 39.2 L/h
COc1cc(N2CCC(N3CCN(C)CC3)CC2)ccc1Nc1ncc(Cl)c(Nc2ccccc2P(C)(C)=O)n1 | – | healthy subjects | oral, dose not given, single dose | apparent volume of distribution | 5.4 to 8.3 L/kg
Cc1c(C(=O)O)ccc2c3n(nc12)[C@@H]1[C@H](C3)N(CC2CC2)[C@@]2(C(=O)Nc3cc(Cl)ccc32)[C@H]1c1cccc(Cl)c1F | – | cancer patients, plasma | oral, 45 mg day 1 every 3 weeks, geometric mean, cycle 1 | apparent volume Vz/F | 26.7 L
CN1CC[C@@H](NC(=O)Nc2ccc(C#N)cc2)C[C@@H]1c1nc2ccccc2[nH]1 | population PK model | cancer patients | oral | apparent clearance | 5.77 L/h
CCCCCCCCCCCCCCCC(=O)N[C@@H](CCC(=O)NCCCC[C@H](NC(=O)[C@H](C)NC(=O)[C@H](C)NC(=O)[C@H](CCC(N)=O)NC(=O)CNC(=O)[C@H](CCC(=O)O)NC(=O)[C@H](CC(C)C)NC(=O)[C@H](Cc1ccc(O)cc1)NC(=O)[C@H](CO)NC(=O)[C@H](CO)NC(=O)[C@@H](NC(=O)[C@H](CC(=O)O)NC(=O)[C@H](CO)NC(=O)[C@@H](NC(=O)[C@H](Cc1ccccc1)NC(=O)[C@@H](NC(=O)CNC(=O)[C@H](CCC(=O)O)NC(=O)[C@H](C)NC(=O)[C@@H](N)Cc1cnc[nH]1)[C@@H](C)O)[C@@H](C)O)C(C)C)C(=O)N[C@@H](CCC(=O)O)C(=O)N[C@@H](Cc1ccccc1)C(=O)N[C@H](C(=O)N[C@@H](C)C(=O)N[C@@H](Cc1c[nH]c2ccccc12)C(=O)N[C@@H](CC(C)C)C(=O)N[C@H](C(=O)N[C@@H](CCCNC(=N)N)C(=O)NCC(=O)N[C@@H](CCCNC(=N)N)C(=O)NCC(=O)O)C(C)C)[C@@H](C)CC)C(=O)O | population PK, base model | adult and pediatric type 2 diabetes, plasma | subcutaneous, dose not given | apparent volume of distribution (V/F) | 18.1 L
COc1cc(Nc2ncc3c(n2)-c2ccc(Cl)cc2C(c2c(F)cccc2OC)=NC3)ccc1C(=O)O | population PK modelling | cancer patients, plasma | oral, dose not given | apparent central volume (V1/F) | 51.8 L
CCn1c(=O)c(-c2cc(NC(=O)Nc3ccccc3)c(F)cc2Br)cc2cnc(NC)cc21 | LC-MS/MS | human, plasma | oral, 150 mg once daily | apparent volume of distribution | 177 L
CC#CC(=O)N1CCC[C@H]1c1nc(-c2ccc(C(=O)Nc3ccccn3)cc2)c2c(N)nccn12 | population pharmacokinetics | healthy subjects | – | apparent clearance (CL/F) | 196 L/h
O=C(c1cccnc1-c1ccncc1)N1CCC(O)(Cc2ccccc2)CC1 | population PK model | healthy adults | oral, 300 mg | apparent oral clearance | 204 L/h
CNC(=O)c1c(C)oc2cc(Oc3ncnc4cc(OC)c(OC)cc34)ccc12 | final population PK model | cancer patients | 73 kg body weight, no PPIs | apparent clearance (CL/F) | 0.808 L/h
N[C@@H](CC(=O)N1CCc2c(nc(C(F)(F)F)nc2C(F)(F)F)C1)CN1CC(F)(F)CCC1=O | – | healthy Korean adults, fasted, plasma | oral, 50 mg single dose, fixed-dose combination tablet, added: enavogliflozin 0.3 mg | apparent clearance CL/F | 36400 ± 6620 mL/h
CC1(C)CCC(CN2CCN(c3ccc(C(=O)NS(=O)(=O)c4ccc(NCC5CCOCC5)c([N+](=O)[O-])c4)c(Oc4cnc5[nH]ccc5c4)c3)CC2)=C(c2ccc(Cl)cc2)C1 | final population PK model | AML patients, plasma | oral, dose not given | apparent peripheral volume (V3/F) | 115 L
